# Published values pooled from the literature.
# ± gives the spread as reported.
Structure (SMILES),assay,test system,conditions,tissue uptake
CC(C)[C@H](NC(=O)[C@@H]1CCCN1C(=O)[C@H](CCCNC(=N)N)NC(=O)[C@H](CS)NC(=O)[C@H](Cc1c[nH]c2ccccc12)NC(=O)[C@H](CCCNC(=N)N)NC(=O)[C@@H](Cc1ccccc1)NC(=O)[C@H](Cc1c[nH]cn1)NC(=O)[C@H](CCC(=O)O)NC(=O)[C@H](CS)NC(=O)[C@H](CS)NC(=O)CNC(=O)[C@@H]1CC(=O)N[C@@H](CCCNC(=N)N)C(=O)NCC(=O)N[C@@H](CC(=O)O)C(=O)N[C@H](Cc2ccc(O)cc2)C(=O)N1)C(N)=O [technetium-99m labelled],,"C57 mouse, female, B16/F1 melanoma, liver","intravenous, 0.037 MBq, 24 h",0.72 ± 0.14 %ID/g
CCCC[C@H](NC(=O)CNC(=O)CNC(=O)CN1CCN(CC(=O)O)CCN(CC(=O)O)CCN(CC(=O)O)CC1)C(=O)N[C@H]1CC(=O)NCCCC[C@@H](C(N)=O)NC(=O)[C@H](Cc2c[nH]c3ccccc23)NC(=O)[C@H](CCCNC(=N)N)NC(=O)[C@@H](Cc2ccccc2)NC(=O)[C@H](Cc2c[nH]cn2)NC1=O [gallium-67 labelled],,"female C57 mice, B16/F1 melanoma, liver","intravenous, 0.037 MBq, 4 h",0.85 ± 0.02 %ID/g
CCCC[C@H](NC(=O)CNC(=O)CNC(=O)CN1CCN(CC(=O)O)CCN(CC(=O)O)CC1)C(=O)N[C@H]1CC(=O)NCCCC[C@@H](C(N)=O)NC(=O)[C@H](Cc2c[nH]c3ccccc23)NC(=O)[C@H](CCCNC(=N)N)NC(=O)[C@@H](Cc2ccccc2)NC(=O)[C@H](Cc2c[nH]cn2)NC1=O [copper-64 labelled],,"female C57 mouse, B16/F1 melanoma, stomach","intravenous, 0.037 MBq, 24 h",0.22 ± 0.04 %ID/g
O=C([O-])CN1CCN(CC(=O)[O-])CCN(CC(=O)NCCc2ccc3c(c2)C2C=CCC2C(c2cc4c(cc2Br)OCO4)N3)CCN(CC(=O)[O-])CC1.[111In+3] (stereo not drawn),,"mice with Hec50 tumour xenograft, bone","2 h, with: G-1 5 µg blocking",0.21 ± 0.08 %ID/g
CCCC[C@@H]1NC(=O)[C@@H](NC(=O)[C@H](CCC(=O)O)NC(=O)CNC(=O)CN2CCN(CC(=O)O)CCN(CC(=O)O)CCN(CC(=O)O)CC2)CCCCNC(=O)C[C@@H](C(N)=O)NC(=O)[C@H](C(C)C)NC(=O)[C@@H]2CCCN2C(=O)[C@H](CCCNC(=N)N)NC(=O)CNC(=O)[C@H](Cc2c[nH]c3ccccc23)NC(=O)[C@H](CCCNC(=N)N)NC(=O)[C@@H](Cc2ccccc2)NC(=O)[C@H](Cc2c[nH]cn2)NC(=O)[C@H](CCC(=O)O)NC1=O [gallium-67 labelled],,"C57 mice with B16/F1 melanoma, liver","intravenous, 2 h",0.23 ± 0.01 %ID/g
C[C@H](CN(C)Cc1ccccc1)NC(=O)c1ccc(-c2noc(C(F)(F)[18F])n2)cc1,PET imaging,"female Sprague-Dawley rats, hippocampus","intravenous, 10 min",2.86 ± 0.28 SUV
O=C([O-])CN1CCN(CC(=O)[O-])CCN(CC(=O)[O-])CCN(CC(=O)[O-])CC1.[64Cu+2],,"healthy athymic nude mice, stomach","intravenous, 15 min",1.03 %ID/g
OCc1cn(Cc2ccc(-c3noc(-c4ccc(OCC[18F])c(C(F)(F)F)c4)n3)cc2)nn1,,"female Lewis rat, kidney","intravenous, 60 min",1.91 ± 0.1 %ID/g
CN(C)c1ccc(-c2nc3ccc(OCCCCCN4CCN5CCN(CC4)CC(=O)[O][Al]([18F])[O]C(=O)C5)cc3s2)cc1,,"ICR mouse, brain","intravenous, 60 min",0.09 ± 0.05 %ID/g
CCCC[C@H](NC(=O)CNC(=O)CNC(=O)CN1CCN(CC(=O)O)CCN(CC(=O)O)CCN(CC(=O)O)CC1)C(=O)N[C@H]1CC(=O)NCCCC[C@@H](C(N)=O)NC(=O)[C@H](Cc2c[nH]c3ccccc23)NC(=O)[C@H](CCCNC(=N)N)NC(=O)[C@@H](Cc2ccccc2)NC(=O)[C@H](Cc2c[nH]cn2)NC1=O [lead-203 labelled],,"C57 mouse, spleen","intravenous, 0.056 MBq, 2 h",0.08 ± 0.09 %ID/g
CN1C(=O)[C@@H](Cc2ccc(O)c(I)c2)NC(=O)CNC(=O)[C@H](Cc2ccc3ccccc3c2)NC(=O)[C@H](CCCNC(=N)N)NC(=O)[C@H]1CCCNC(=O)c1ccc(CNC(=O)CN2CCN(CC(=O)O)CCN(CC(=O)O)CCN(CC(=O)O)CC2)cc1 [lutetium-177 labelled],measured: 177Lu radioactivity,"female CB-17 SCID mice, Daudi xenograft, kidney","intravenous, 0.16 nmol per mouse, 1 h",3.4 ± 0.6 %ID/g
O=C(O)C1CN(Cc2ccc(-c3noc(-c4ccc(OCC[18F])c(C(F)(F)F)c4)n3)cc2)C1,,"male Sprague-Dawley rat, heart","intravenous, 30 min",0.445 ± 0.03 %ID/g

# Some of these lines once more:
Structure (SMILES),assay,test system,conditions,tissue uptake
CCCC[C@H](NC(=O)CNC(=O)CNC(=O)CN1CCN(CC(=O)O)CCN(CC(=O)O)CCN(CC(=O)O)CC1)C(=O)N[C@H]1CC(=O)NCCCC[C@@H](C(N)=O)NC(=O)[C@H](Cc2c[nH]c3ccccc23)NC(=O)[C@H](CCCNC(=N)N)NC(=O)[C@@H](Cc2ccccc2)NC(=O)[C@H](Cc2c[nH]cn2)NC1=O [gallium-67 labelled],,"female C57 mice, B16/F1 melanoma, liver","intravenous, 0.037 MBq, 4 h",0.85 ± 0.02 %ID/g
